# Published values from different studies.
# A part holds a random share of what one study measured.

# Block 1
# Target: Ras GTPase-activating protein-binding protein 1, RRM domain (G3BP1, Homo sapiens, UniProt Q13283)
# UniProt Q13283, sequence (whole entry, looked up): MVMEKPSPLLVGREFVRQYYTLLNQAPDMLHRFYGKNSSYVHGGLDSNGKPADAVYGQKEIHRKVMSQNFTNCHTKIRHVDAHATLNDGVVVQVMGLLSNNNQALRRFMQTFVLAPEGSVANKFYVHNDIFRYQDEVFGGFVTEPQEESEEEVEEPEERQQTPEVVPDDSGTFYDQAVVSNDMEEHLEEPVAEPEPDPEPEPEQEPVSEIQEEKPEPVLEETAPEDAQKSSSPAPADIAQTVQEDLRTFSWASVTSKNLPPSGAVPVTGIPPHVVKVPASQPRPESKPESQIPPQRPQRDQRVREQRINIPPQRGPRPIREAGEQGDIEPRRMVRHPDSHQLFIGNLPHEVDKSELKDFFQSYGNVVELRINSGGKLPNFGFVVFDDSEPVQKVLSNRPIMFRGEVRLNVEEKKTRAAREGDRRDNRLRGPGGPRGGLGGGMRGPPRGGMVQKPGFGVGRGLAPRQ
# Technique: RNA Bind-n-Seq
# Molecule type: RNA
# Medium: in vitro
# Tested at: 1 µM
# Setting: whole 134-nt RNA, ends assumed
# Added: 150 mM KCl
# Relative to: input library
# Reading: higher = stronger binding
Strand,log2 enrichment
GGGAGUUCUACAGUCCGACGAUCGUCCUGUGCUACACAUCGUAUGUACCGAAUCGGGGUUUGGGGAAAAAAAGGGGUGGGGAAAGUAUUAUGUUACGCCGUUCGGAUCUGCACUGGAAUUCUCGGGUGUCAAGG,0.819
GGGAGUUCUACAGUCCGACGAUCACCAUGCAGGUGGGCAUCUUUGGGAAGUUGGGCAAGGGGGGGAUAGGGAGGGGGGUAACACUUUGGGAACAGGUGGUCCCAGGUCGUUUCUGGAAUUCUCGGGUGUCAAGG,-0.473
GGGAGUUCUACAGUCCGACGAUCUUUUAAUUUGUUUGUCUCUCAUGAAACUAUGGUCUUUUAAAAAUUAAAGGUUUUUUUUUUCCCCUUAGACGAAACUGCAAAGGAAAUCCGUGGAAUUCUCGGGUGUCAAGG,-0.824
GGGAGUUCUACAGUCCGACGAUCUCCUGUGCUACACAUCGUAUGUACCGAAUCGGGUUUUUUGGUUUUUUGGUUUUUUGGGGAAAGUAUUAUGUUACGCCGUUCGGAUCUGCAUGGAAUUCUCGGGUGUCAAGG,-0.196
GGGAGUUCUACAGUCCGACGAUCUGGCCCUGGUGGCAUGCGGGGAGGAAGAGUUGGCCUCAUGGAUCGUGGUGGUCCCGGUGGAAUGUUCAGAGGUGGCCGUGGUGGAGACAGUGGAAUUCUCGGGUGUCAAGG,0.853
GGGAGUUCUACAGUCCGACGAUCUCAAGUCCUGUGCUACACAUCGUAUGUACCGAAUCGGUUUGGAAAAAGGAAAGGAAAGUAUUAUGUUACGCCGUUCGGAUCUGCACUUCCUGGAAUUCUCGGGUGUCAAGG,-0.157
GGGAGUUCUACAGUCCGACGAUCAGUCCUGUGCUACACAUCGUAUGUACCGAAUCGGGUUUUGGGGUUUUGGGGUUUUGGGAAAGUAUUAUGUUACGCCGUUCGGAUCUGCACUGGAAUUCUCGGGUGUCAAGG,0.145
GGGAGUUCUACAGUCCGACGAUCAGUCCUGUGCUACACAUCGUAUGUACCGAAUCGGAAAAGGGAAAAGGGGAAAAGGGGAAAGUAUUAUGUUACGCCGUUCGGAUCUGCACUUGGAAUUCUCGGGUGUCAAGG,0.239

# Block 2
# Target: Prothrombin, mature alpha-thrombin (F2, Homo sapiens, UniProt P00734)
# Technique: aptamer microarray, sandwich
# Molecule type: DNA with 2'F-ANA
# Medium: in vitro
# Tested at: 200 nM
# Setting: whole 15-mer aptamer, many near background
# Added: Cy3 exosite-II aptamer, 400 nM
# Reading: higher = stronger binding
# Strand: GGTTGGTGTGGTTGG
Modification,mean fluorescence intensity
2'F-ANA at 2 3 5 6 7 9 10 12 14 15,47.4 a.u.
2'F-ANA at 2 5 6 8 9 11 14 15,57.7 a.u.
2'F-ANA at 3 4 7 8 10 11 12 15,339 a.u.
2'F-ANA at 1 4 5 6 8 12 13,78.3 a.u.
2'F-ANA at 5 7 12 13,115 a.u.
2'F-ANA at 2 3 4 5 10 11 13,49.8 a.u.
2'F-ANA at 1 2 5 6 7 8 11 13,53.5 a.u.
2'F-ANA at 5 6 10 12,49.7 a.u.

# Block 3
# Target: HLA class I histocompatibility antigen, A alpha chain, allele A*26:03 (Homo sapiens, UniProt P04439)
# Read-out: peptide-MHC binding
# Molecule type: peptide
# Tested at: concentration not given
Molecule,binding
EYKKFIATF,inactive
KRSTPFYTK,inactive
RRCPHHERC,inactive
AADFPGIAR,inactive
IHIPGDTLF,inactive
TTARPRPPM,inactive
QVFKGVVIR,inactive
QWSPGPGRL,inactive
STFAASGPF,inactive
RVFDKADGK,inactive
AKYEICLEK,inactive
KYFDDVTAF,inactive
WQFAIHYSF,inactive
RTMPLSRFT,inactive
LYNTIAVLY,inactive
AVYLLDGLR,inactive
FVFEATKLY,inactive
FYLFTFTIY,inactive
EMIWDPNGW,inactive
WFGHLASDW,inactive
YECTSRHFT,inactive
IISTNTLGK,inactive
ARHGEYAPF,inactive
LYNTVATLY,inactive
RSLYNTIAVLY,inactive

# Block 4
# Target: RING finger protein unkempt homolog, zinc fingers 1-6, GST-SBP tag (UNK, Homo sapiens, UniProt Q9C0B0, residues 30-357)
# UniProt Q9C0B0, sequence (30-357, looked up): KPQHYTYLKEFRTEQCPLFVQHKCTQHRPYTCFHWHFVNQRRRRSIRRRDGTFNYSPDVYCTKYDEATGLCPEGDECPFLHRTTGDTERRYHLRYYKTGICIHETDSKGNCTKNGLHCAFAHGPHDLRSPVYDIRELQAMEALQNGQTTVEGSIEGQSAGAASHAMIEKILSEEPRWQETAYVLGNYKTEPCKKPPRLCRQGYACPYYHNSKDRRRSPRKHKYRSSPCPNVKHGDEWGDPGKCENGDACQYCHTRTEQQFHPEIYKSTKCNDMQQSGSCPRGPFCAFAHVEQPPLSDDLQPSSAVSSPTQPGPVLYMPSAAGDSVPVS
# Technique: RNA Bind-n-Seq
# Molecule type: RNA
# Medium: in vitro
# Tested at: not given
# Setting: RNA with constant flanks, ends assumed
# Relative to: input RNA pool
# Reading: higher = stronger binding
Strand,bound/input enrichment
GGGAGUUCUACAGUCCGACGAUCUAUGAAGUGUACAGCUCCUCAGCAGGCCCUGCGGUCAGACACAAGUGCCUUAGAGCAAUUCUCCGGAUAAUUUAUUUUGCUGAUGCUGAACUUCUGAAGGAUGUUCUGAAAAAUCAUGCUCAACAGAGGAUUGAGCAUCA,1.65 ratio
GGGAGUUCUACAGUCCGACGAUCGAACGAGGACGCCUGAAGGAAGAGCUGGAAGAGGCUCGGGACAUAGCCCGGCGGCGCUCUUCCGGGAAUAUCAAGUUUAUUGGAGAGUUGUUCAAACUGAAGAUGUUAACAGAGGCAAUACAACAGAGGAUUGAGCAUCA,0.508 ratio
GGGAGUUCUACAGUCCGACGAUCAGGUUCUGGCUGAUAGACUGUCGACAGAUUCAGGAGUCUGUUGCCUUUGCAUCACAAGUGUACCGAGAAAUUAUCUGUGUGCCAUAUAUGGCCAAAUUUGUAGUGUUUGCCAAGUCACAUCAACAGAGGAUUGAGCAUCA,0.201 ratio
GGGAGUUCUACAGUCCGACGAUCGAAAAUGCUUUUGAGCGACUGCUGGACAUUAUUACAGAGGAGGGGAACAGUGACGGAGGUACCGCCGUGGAAGAUUGUUUGAUUUUACUUCAAAACUUGUUAAAAACCAACAAUUCCAAUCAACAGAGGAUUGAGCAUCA,0.332 ratio
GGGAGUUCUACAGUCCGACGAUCUGUACAAAUCCUAUAACACCUCUUUGUACACAACCUGACCAGGUUAUUAAAGGGGGUGCCCGUAUUAUUCAGUGCCACAUUCUUAAUGAUAAGAGACAUAUAUUAACCAAAGAUACCAAUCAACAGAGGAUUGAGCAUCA,0.171 ratio
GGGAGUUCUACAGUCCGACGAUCCAAACACCCUUUGUAUUCCAAAAUAGGGUCUCAAACAUUUUGUAAUUUUCAUUUAAAUUGUCCGGAGGCUUGGAGCUAUUAGUUAAUCUAUCUUCCAAUACACUGUUUAAUAUAGCACUGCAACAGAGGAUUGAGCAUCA,2 ratio
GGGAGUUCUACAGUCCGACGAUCCGUUCUGCUAACACUAUCAAUUAUGCAUCGUGUUGAACGAAGCUUCGGGGAGGGGGAGGCCCGCAGGCGGCAGGAGGAAAAGGGUCCGGGAGAGCCAGGCAGCGCAGUUCAGCAGGUCCCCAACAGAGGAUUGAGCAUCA,0.245 ratio
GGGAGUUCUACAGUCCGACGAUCUUCGUACCAGUUAUUAAACUCUGUUUUGAUGGGAUAGAGAUUGAUAUUUUGUUUGCAAGAUCCGCACUGCAGACAAUUCCUGAAGAUUUGGAUCUACGAGAUGACAGUCUGCUAAAAAAUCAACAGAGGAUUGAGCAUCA,0.166 ratio

# Further values, each from its own experiment
SMILES,cell line,tested at,time,setting,relative to,viability
Cl[C@H]1[C@H](Cl)[C@@H](Cl)[C@@H](Cl)[C@H](Cl)[C@H]1Cl,A-375,100 µM,36 h,,,1.2%
CNC(=N)NCCC[C@H](NC(=O)[C@H](CC(C)C)NC(=O)NNC(=O)[C@H](Cc1ccccc1)NC(=O)[C@H](CO)NC(=O)[C@H](CC(N)=O)NC(=O)[C@@H](Cc1cccnc1)NC(=O)[C@H](N)Cc1ccc(O)cc1)C(=O)NCC(N)=O,sample B colorectal tumour organoid,0.1 µM,,replicate 2,DMSO,111%

# For quick reference, copied from above (block 3):
Molecule,binding
EMIWDPNGW,inactive
WFGHLASDW,inactive
YECTSRHFT,inactive
